Measured values pooled from the literature.
Lines come from different studies, so protocols differ. ± gives the spread as reported.

SMILES = Cn1c(=O)oc2ccc(-c3ccc(C[C@@H](C#N)NC(=O)[C@@H]4CNCCCO4)cc3)cc21; system = human, moderate renal impairment, plasma; conditions = oral, 25 mg single dose, mean; Vd/F = 359 L
SMILES = O=C(O)CCC(=O)O.[2H]C([2H])([2H])Oc1cc(C)c2[nH]ccc2c1CN1CC[C@@H](C2CC2)C[C@H]1c1ccc(C(=O)O)cc1; test = LC-MS/MS, mean; system = human, plasma; conditions = 100 mg, single dose, fasting; Vd/F = 56.8 L
SMILES = CCCn1cc(C)c2c(=O)[nH]c(-c3cc(S(=O)(=O)N4CCN(CC)CC4)ccc3OCC)nc21; system = human; conditions = oral, 100 mg, together with: alcoholic beverage 0.5 g/kg; Vd/F = 2770 ± 1110 L
SMILES = Cc1nsc(-c2nnc3n2CCN(C(=O)c2ccc(F)cc2)[C@@H]3C)n1; system = human, plasma; conditions = oral; Vd/F = 160 L
SMILES = COC(=O)c1ccc2c(c1)NC(=O)/C2=C(\Nc1ccc(N(C)C(=O)CN2CCN(C)CC2)cc1)c1ccccc1; system = healthy human; conditions = oral, 150 mg single, alone; Vd/F = 18800 L
SMILES = CCN1CCN(Cc2ccc(Nc3ncc(F)c(-c4cc(F)c5nc6n(c5c4)[C@H](C)CCC6)n3)nc2)CC1; system = human, plasma; conditions = 50 mg single dose, mean; Vd/F = 1880 L
SMILES = C[C@H](O)c1cc(C(=O)N[C@@H](C)Cn2ccc(-c3ccc(C#N)c(Cl)c3)n2)n[nH]1; system = human, fasted; conditions = oral, 300 mg darolutamide tablet, geometric mean; Vd/F = 337 L
SMILES = CC(C)c1nc(N(C)S(C)(=O)=O)nc(-c2ccc(F)cc2)c1/C=C/[C@@H](O)C[C@@H](O)CC(=O)O; system = human, plasma; conditions = oral, 20 mg, day 2, mean, single agent; Vd/F = 10400 L

Excerpt of the above:
SMILES = O=C(O)CCC(=O)O.[2H]C([2H])([2H])Oc1cc(C)c2[nH]ccc2c1CN1CC[C@@H](C2CC2)C[C@H]1c1ccc(C(=O)O)cc1; test = LC-MS/MS, mean; system = human, plasma; conditions = 100 mg, single dose, fasting; Vd/F = 56.8 L
